Assay results of several laboratories.
± gives the spread as reported.
rep main protease: Replicase polyprotein 1ab, main protease (rep, Severe acute respiratory syndrome coronavirus 2, UniProt P0DTD1)
rep papain-like protease: Replicase polyprotein 1ab, papain-like protease (rep, Severe acute respiratory syndrome coronavirus 2, UniProt P0DTD1)

Substance | target or system | assay | test system | conditions | measurement | value
O=C(c1cc2ccc(O)cc2[nH]1)N1CC2(C1)CN(C(=O)[C@H]1CCc3n[nH]nc3C1)CCO2 | rep main protease | enzyme activity, inhibitor |  | 5 µM, run 2 | inhibition | 11.9%
CC(C)C[C@H](NC(=O)[C@H](Cc1ccccc1)NC(=O)c1cnccn1)B1O[C@@H]2C[C@@H]3C[C@@H](C3(C)C)[C@]2(C)O1 | rep main protease | viral replication, mKate2 reporter | SARS-CoV-2 | 20 µM | inhibition | -0.816%
Cn1cnc(Cn2c(=O)[nH]/c(=N\c3cc4cn(C)nc4cc3Cl)n(Cc3cc(F)c(F)cc3F)c2=O)n1 |  |  | human, moderate renal impairment, plasma | oral, 375 mg single dose | Cmax | 20500 ng/mL
Cc1cncc(CC(=O)N2CCC[C@H]([C@H]3CCN(C(=O)c4cnc5cc(C)ccc5c4)C3)C2)c1 | rep main protease | enzyme activity, inhibitor |  | 5 µM, mean of runs | inhibition | 10.9%
COc1ccc(-c2oc3cc(OC)cc(O)c3c(=O)c2OC)cc1 | rep main protease | enzyme activity, inhibitor |  | 10 µM | inhibition | 0.9%
Cc1nn(-c2ccc(Cl)cc2)c2c1C(c1ccc(Cl)cc1Cl)C(C#N)=C(N)O2 (centres unmarked) | rep main protease | 3CL protease activity |  | 0.001 µg/mL, 90 min, enzyme 1 ng/mL | inhibition | 6.28%
COc1cc(O)c2c(=O)c(OC)c(-c3ccccc3)oc2c1 | rep main protease | enzyme activity, inhibitor |  | 100 µM | inhibition | 7.44%
O=C1C[C@@H](c2ccc(O[C@@H]3O[C@H](CO)[C@@H](O)[C@H](O)[C@H]3O)cc2)Oc2cc(O[C@@H]3O[C@H](CO)[C@@H](O)[C@H](O)[C@H]3O)ccc21 | rep papain-like protease | enzyme activity, inhibitor |  | concentration not given | inhibition | 42.8%
CN1CCc2nc(C(=O)N[C@@H]3C[C@@H](C(=O)N(C)C)CC[C@@H]3NC(=O)C(=O)Nc3ccc(Cl)cn3)sc2C1 | rep main protease | reporter gene (Gaussia luciferase), inhibitor |  | 20 µM | inhibition | -0.425%
COc1cc(O)cc2c1[C@@H]1Oc3c(ccc4c3C=CC(C)(C)O4)[C@@H]1CO2 | rep papain-like protease | enzyme activity, inhibitor |  | concentration not given | inhibition | 35%
COc1cc(O)c2c(=O)c(OC)c(-c3ccc(OC)c(OC)c3)oc2c1 | rep main protease | enzyme activity, inhibitor |  | 100 µM | inhibition | 16.1%
CC[C@H](C)[C@H](NC(=O)[C@H](CC(C)C)NC(=O)[C@H](Cc1c[nH]c2ccccc12)NC(=O)[C@H](CCC(N)=O)NC(=O)[C@@H](NC(=O)[C@H](Cc1ccccc1)NC(=O)[C@H](C)NC(=O)[C@H](CCCCNC(=O)COCCOCCNC(=O)COCCOCCNC(=O)CC[C@H](NC(=O)CCCCCCCCCCCCCCCCCCC(=O)O)C(=O)O)NC(=O)[C@H](CCC(N)=O)NC(=O)[C@H](C)NC(=O)[C@@H](NC(=O)[C@H](CCCCN)NC(=O)[C@H](CC(=O)O)NC(=O)[C@H](CC(C)C)NC(=O)C(C)(C)NC(=O)[C@@H](NC(=O)[C@H](CO)NC(=O)[C@H](Cc1ccc(O)cc1)NC(=O)[C@H](CC(=O)O)NC(=O)[C@H](CO)NC(=O)[C@@H](NC(=O)[C@H](Cc1ccccc1)NC(=O)[C@@H](NC(=O)CNC(=O)[C@H](CCC(=O)O)NC(=O)C(C)(C)NC(=O)[C@@H](N)Cc1ccc(O)cc1)[C@@H](C)O)[C@@H](C)O)[C@@H](C)CC)[C@@H](C)CC)C(C)C)C(=O)N[C@@H](C)C(=O)NCC(=O)NCC(=O)N1CCC[C@H]1C(=O)N[C@@H](CO)C(=O)N[C@@H](CO)C(=O)NCC(=O)N[C@@H](C)C(=O)N1CCC[C@H]1C(=O)N1CCC[C@H]1C(=O)N1CCC[C@H]1C(=O)N[C@@H](CO)C(N)=O |  |  | healthy subjects, serum | 4.5 mg, baseline, multiple ascending dose | serum ALT | 27 ± 10.8 U/L
daurisoline | rep main protease | enzyme activity, mKate2 fluorescence reporter | SARS-CoV-2 | 20 µM | inhibition | -0.577%
COc1cc2c(c3oc(-c4ccc(O)cc4O)cc13)C(C)(C)C(C)O2 (centres unmarked) | rep main protease | enzyme activity, inhibitor |  | concentration not given | inhibition | 5.9%
O=C1NC(=O)C2(CC(C(=O)NC[C@@H]3CC4(CCC4)CN3C(=O)c3ccn4ccnc4c3)C2)N1 (some centres unmarked) | rep main protease | enzyme activity, inhibitor |  | 5 µM, mean of runs | inhibition | 10%
COc1ccc(-c2oc3cc(OC)cc(OC)c3c(=O)c2OC)cc1 | rep main protease | enzyme activity, inhibitor |  | 10 µM | inhibition | 0.4%
O=c1oc(-c2ccccc2Br)nc2cccc(Cl)c12 | rep main protease | viral replication, mKate2 reporter | SARS-CoV-2 | 20 µM | inhibition | -0.78%
CC(=O)OC[C@H]1O[C@@H]([S-])[C@H](OC(C)=O)[C@@H](OC(C)=O)[C@@H]1OC(C)=O.CCP(CC)CC.[Au+] | rep main protease | protease activity, inhibitor |  | 50 µM, 10 min, pH 7.2, 37 °C, 4% DMSO, added: Boc-Abu-Tle-Leu-Gln-AMC substrate | inhibition | 52%

Substance | target or system | assay | test system | conditions | measurement | value
COc1cc(OC)c2c(=O)c(OC)c(-c3ccccc3)oc2c1 | rep main protease | enzyme activity, inhibitor |  | 10 µM | inhibition | -9.08%
O=c1c2ccccc2[se]n1-c1ccccc1 | rep main protease | enzyme activity, inhibitor |  | 40 µM | inhibition | 104%
CC(C)=CCc1cc(-c2oc3cc(O)cc(O)c3c(=O)c2O)cc(O)c1O | rep main protease | enzyme activity, inhibitor |  | concentration not given | inhibition | 21.2%
CC1=C2CC(C(=O)N[C@@H]3CN(C(=O)c4cc5ccccc5o4)Cc4nccn4C3)=CN=C2NN1 | rep main protease | Mpro enzyme activity, inhibitor |  | 5 µM, high-throughput screen, mean of runs | inhibition | 11%
CC(C)(C)c1ccc(Oc2ccc(N)cn2)cc1 | rep main protease | reporter gene (mKate2), inhibitor |  | 20 µM | inhibition | 0.303%
C[C@@H]1O[C@@H](c2c(O)c([C@@H]3O[C@H](CO)[C@@H](O)[C@H](O)[C@H]3O)c3oc(-c4ccc(O)cc4)cc(=O)c3c2O)[C@H](O)[C@H](O)[C@H]1O | rep main protease | enzyme activity, inhibitor |  | concentration not given | inhibition | 37.8%
O=C(O)c1cc(Oc2ccc([N+](=O)[O-])cc2)cc(Oc2ccc([N+](=O)[O-])cc2)c1 | rep main protease | reporter gene (mKate2), inhibitor |  | 20 µM | inhibition | -0.115%
Cc1ccccc1C1(C(=O)NC[C@H](NC(=O)Cn2cncn2)c2ccc3ccccc3c2)CC1 | rep main protease | enzyme activity, inhibitor |  | 5 µM, mean of runs | inhibition | 10.5%
O=C(N1CCC2(CC1)C[C@H](CN1CCCCS1(=O)=O)CCO2)C1(c2ccccc2)CCCC1 | Replicase polyprotein 1ab, nsp13 helicase (rep, Severe acute respiratory syndrome coronavirus 2, UniProt P0DTD1) | ATPase activity, inhibitor |  | 100 µM | inhibition | 20%
O=C(N[C@@H](CNC(=O)[C@H]1CC12CC2)c1ccc2ccccc2c1)c1cncc2ccccc12 | rep main protease | enzyme activity, inhibitor |  | 5 µM, run 1 | inhibition | 8.6%
COc1ccc(S(=O)(=O)N(Cc2cccnc2)[C@@H](C(=O)NO)C(C)C)cc1 | rep main protease | reporter gene (mKate2), inhibitor |  | 20 µM | inhibition | -0.213%
O=c1c(O)c(-c2cc(O)c(O)c(O)c2)oc2cc(O)cc(O)c12 | rep main protease | enzyme activity, inhibitor |  | 10 µM | inhibition | 99.7%
Nc1ncnc2c([C@@H]3N[C@H](CO)[C@@H](O)[C@H]3O)c[nH]c12 | Marburg virus | viral replication, antibody staining | HeLa, Musoke | 12.5 µM, 12 h | infected cells | 2%
Cc1ccc2[nH]ncc2c1C(=O)NC[C@H]1Cc2ccccc2CN1C(=O)C[C@H](C)c1ccco1 | rep main protease | enzyme activity, inhibitor |  | 5 µM, run 1 | inhibition | 11.1%
CCOC(=O)c1cc2cc(-c3cc(C(=O)NCc4ccc(C(=O)O)cc4)nn3C)ccc2[nH]1 | rep main protease | reporter gene (mKate2), inhibitor | HEK293T | 20 µM | inhibition | 0.386%
Cc1nn(C)c2ncc(C(=O)N3CC4(CCOCC4)C[C@H]3CNC(=O)c3cccnc3)cc12 | rep main protease | enzyme activity, inhibitor |  | 5 µM, mean of runs | inhibition | 11.1%
CC1(C)C=Cc2c(ccc(-c3coc4cc(O)cc(O)c4c3=O)c2O)O1 | rep main protease | enzyme activity, inhibitor |  | concentration not given | inhibition | 14.8%

Excerpt of the above:
Substance | target or system | assay | test system | conditions | measurement | value
Nc1ncnc2c([C@@H]3N[C@H](CO)[C@@H](O)[C@H]3O)c[nH]c12 | Marburg virus | viral replication, antibody staining | HeLa, Musoke | 12.5 µM, 12 h | infected cells | 2%
Cc1ccc2[nH]ncc2c1C(=O)NC[C@H]1Cc2ccccc2CN1C(=O)C[C@H](C)c1ccco1 | rep main protease | enzyme activity, inhibitor |  | 5 µM, run 1 | inhibition | 11.1%
CCOC(=O)c1cc2cc(-c3cc(C(=O)NCc4ccc(C(=O)O)cc4)nn3C)ccc2[nH]1 | rep main protease | reporter gene (mKate2), inhibitor | HEK293T | 20 µM | inhibition | 0.386%
Cc1nn(C)c2ncc(C(=O)N3CC4(CCOCC4)C[C@H]3CNC(=O)c3cccnc3)cc12 | rep main protease | enzyme activity, inhibitor |  | 5 µM, mean of runs | inhibition | 11.1%
CC1(C)C=Cc2c(ccc(-c3coc4cc(O)cc(O)c4c3=O)c2O)O1 | rep main protease | enzyme activity, inhibitor |  | concentration not given | inhibition | 14.8%
